Published values gathered from unrelated publications.
A part holds a random share of what one study measured.

Series 1
Target: Ras GTPase-activating protein-binding protein 1, full length (G3BP1, Homo sapiens, UniProt Q13283)
Sequence of UniProt Q13283 (whole entry, looked up): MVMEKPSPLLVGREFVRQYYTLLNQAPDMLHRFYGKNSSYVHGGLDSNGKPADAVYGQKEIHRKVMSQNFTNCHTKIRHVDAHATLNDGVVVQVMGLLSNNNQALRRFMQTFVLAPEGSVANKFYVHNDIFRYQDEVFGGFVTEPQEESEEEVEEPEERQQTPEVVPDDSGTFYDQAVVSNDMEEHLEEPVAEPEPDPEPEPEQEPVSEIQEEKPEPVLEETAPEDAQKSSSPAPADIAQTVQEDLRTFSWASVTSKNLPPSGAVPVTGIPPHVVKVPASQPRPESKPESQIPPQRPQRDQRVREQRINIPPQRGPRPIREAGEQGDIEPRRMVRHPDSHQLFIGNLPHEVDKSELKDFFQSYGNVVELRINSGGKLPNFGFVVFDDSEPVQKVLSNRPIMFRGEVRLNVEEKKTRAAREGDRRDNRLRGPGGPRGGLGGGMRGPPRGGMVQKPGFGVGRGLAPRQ
Method: RNA Bind-n-Seq
Form: RNA
Sample: in vitro
Concentration: 200 nM
Notes: whole 134-nt RNA, ends assumed
Added: 150 mM KCl
Baseline: input library
Reading: higher = stronger binding
Shared flanks, not repeated: GGGAGUUCUACAGUCCGACGAUC … UGGAAUUCUCGGGUGUCAAGG
| Strand | log2 enrichment |
| --- | --- |
| ACCAUGCAGGUGGGCAUCUUUGGGAAGUGGGGCAAGGGGGGGAUAGGGAGGGGGGUAACACUUUGGGAACGGGUGGUCCCAGGUCGUUUC | 1.02 |
| UGUGCUACACAUCGUAUGUACCGAAUCGGGGAAAAAAAGGGGAAAAAAAGGGGAAAAAGGGGAAAGUAUUAUGUUACGCCGUUCGGAUCU | -0.415 |
| AAGUCCUGUGCUACACAUCGUAUGUACCGAAUCGGGUUUUGGUUUUGGGUUUUGGGGAAAGUAUUAUGUUACGCCGUUCGGAUCUGCACU | -0.711 |
| AGUCCUGUGCUACACAUCGUAUGUACCGAAUCGGUUUUUGGGGUUUUUGGUUUUUGGGAAAGUAUUAUGUUACGCCGUUCGGAUCUGCAC | -1.09 |
| CACAGACAACACGCACCCACACGGACACAGAGGGAAGGGGUUGGGAUGGGGACAGGGUGCACAGCAGGGCGGGGUAGGACCCCAGCCCCU | 1.83 |
| UGGGAGGUGGAUUUUGUUUAUUUUUUUAGCUCAUUUCCAGGGGUGGGAAUUUUUUUUUAAUAUGUGUCAUGACUAAAGUUGUUUUUGAAA | 0.5 |
| UGGGAGGUGGAUUUUGUUUAUUUUUUUAGCUCAUUUCCAGGGGUGGGAAUUUUUUUUUAAAAUGUGUCAUGAAUAAAGUUGUUUUUGAAA | 0.0296 |
| UCAAGUCCUGUGCUACACAUCGUAUGUACCGAAUCGGAAGGGAAGGGGAAGGGGAAAGUAUUAUGUUACGCCGUUCGGAUCUGCACUUCC | 0.986 |
| UGUGUGUUAUAUAUUUAUUUUUAAUUGCAGAUGACAGGAUUGGACAUUGAGAAGGACCAGAUUAUUGAGAUGGCCUGUCUGAUAACUGAC | -1.95 |
| CUCAAGUCCUGUGCUACACAUCGUAUGUACCGAAUCGGUUUGGUGGUUUUUGGAAAGUAUUAUGUUACGCCGUUCGGAUCUGCACUUCCA | -0.285 |
| UCAAGUCCUGUGCUACACAUCGUAUGUACCGAAUCGGGGUGGGGAGGGGAGGGGAAAGUAUUAUGUUACGCCGUUCGGAUCUGCACUUCC | 1.47 |
| AAGUCCUGUGCUACACAUCGUAUGUACCGAAUCGGGGUGGGGUUUGGGGUUUGGGGAAAGUAUUAUGUUACGCCGUUCGGAUCUGCACUU | 1.02 |
| GUCCUGUGCUACACAUCGUAUGUACCGAAUCGUGUGUGUGUGUGUGUGUGUGUGUGUGUAAAGUAUUAUGUUACGCCGUUCGGAUCUGCA | 0.819 |
| AAGUCCUGUGCUACACAUCGUAUGUACCGAAUCGGGGUUUGGGGUUUGGGUUUGGGAAAGUAUUAUGUUACGCCGUUCGGAUCUGCACUU | 0.267 |

Series 2
Target: RNA binding protein fox-1 homolog 2, RRM domain, GST-SBP tag (RBFOX2, Homo sapiens, UniProt O43251-10, residues 100-194)
Method: RNA Bind-n-Seq
Form: RNA
Sample: in vitro
Concentration: 365 nM
Notes: natural RNA segment, single round, ends assumed
Baseline: no-protein control
Reading: higher = stronger binding
Shared flanks, not repeated: GGGAGUUCUACAGUCCGACGAUC … UGGAAUUCUCGGGUGCCAA
Residues (chain): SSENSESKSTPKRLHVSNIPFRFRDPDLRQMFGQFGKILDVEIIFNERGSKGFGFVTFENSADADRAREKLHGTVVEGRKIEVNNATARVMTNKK
| Strand | RBNS enrichment (R) |
| --- | --- |
| UUCAAAGAAAAUAUUUUAAACCUGUGAAAACUCACUAAUUUUGUUAAUAUUUAUCAUGAUGGCAUCAUUUCAGCCAGACUCGCUGAGAAUCUAUUGGUGGGGCAAAUAUA | 0.417 |
| GCCGCCAGCUGGCACCUGCCUCUAUCCCAGACUGCCCUCGUCCCAGCUCUCUGUCCAACUGUUGAUUAUGUGAUUUUUCUGAUACGUCCAUUCUCAAAUGCCAGUGUGUU | 1.17 |
| GCUCGUGUCUGACUCGAGCGGUAUCAGAACAGGGCUGGGAUGGAGUCUUCGUGUUUUGCACCCUGUGCAUUGCUAUAUUCACAAGUACCAACUGUAGGAGUCAGAGGUGU | 0.368 |
| AAGCAGCUACUUACCCCUCAGAGAAUAAAGUAUUAUGCAUUCUUGUCAAUUUGAAAACUACAUCUACUGUAUUAUUGCUGAAUAUUUUGUUAAUACUAAGGGACAAUUAU | 0.458 |
| UCAACUCAGCAUCUCUCCCCCUAUGGACUUAACCCAAGUGUUUUUAAUGCUGGUAGCAGUUGGAUCCAGGCACAACCAGACUUAGUUGCACAACUGUAUGUGACCAAAAG | 0.673 |
| CACUGUUUCAAAAGCGUCAACUCUGUGUUCCUAGUUUCGAUGAACUCCCCAUUCAUUUUUAACACACUUCCCAGAUAAGGCAAUGUGCUGGACAGGCACACGGCAUGGCC | 1.02 |
| CAUAGAUUUAGUCAGAAGCUGUUUUACUCUCUUAUCUUACAUUCUAUCUAGCUUCCAUAAUUUAUACCAGAACAAAAUGUUUUAGCCAGUUUGUUUCUACAUACCUAUGA | 0.35 |
| UUUUAGAAAGCAGCUUACUAGUUUACCCUUGUGGUAUAAAGUAUUAUAAAUUGUUGUGAAUUUGAAGAAUCCGUCUACUGUAUUAUUGCUAAAUAUUUUGUUUAUACUAA | 0.513 |
| AUCCUUGGCCAUGCAGUUAGCACCUUCCUGUCAUGGGGAAGAUAUAGUGAAUUGCCCUGAGCUGCCUUCUUUUCUUUUUAAAAAUUUUUAAAUAAGGUUUUCUUUGUGGG | 0.721 |
| UGGCGGAGCAUUGCCUUUCUAAGAACUGUGACUGUGGCCCAUCGAGACCUAGCCUGGUUUUCCCUUAGACAAUGAAUGAAGUGUGCCCAUUGAAAUAAAACUCAAACCAC | 0.368 |
| UUGCUGAAGGAAAAAUCGGACUGCAAAUCAUUCCAAGGCCAAACUGCAACUGAGCCACCCACUCCCAAACAGGAAACCCUGGUGAAGGUUCAGGAAGCACGGAGAUUCUC | 0.17 |
| CUUGUCUUAGAUAGAAAAGAGCCUUCUCCAAGAGCAAUGUCAAAACUUGGGCUGUCAUCUUUGAGCUGUUUACCAAAAUACAGACCAUUAUUGAAGAAAAACAAAUUAUC | 0.75 |

Series 3
Target: Interferon regulatory factor 5, full length, phosphomimetic (IRF5, Homo sapiens, UniProt Q13568-2, residues 1-514, K96S/S451D/S453D/S456D/S462D)
Method: protein-binding microarray
Form: double-stranded DNA, one strand shown
Sample: in vitro
Concentration: 250 nM
Notes: 60-bp whole probe
Added: salmon DNA 0.4 mg/ml
Baseline: random background probes
Reading: higher = stronger binding
Shared flanks, not repeated: GCCTAGCAC … GTCTTGATTCGCTTGACGCTGCTG
| Strand | log fluorescence [z-score] |
| --- | --- |
| TACGGACTGGGTCTCGGGACGTGCTAG | -0.599 |
| TTAGGTTCCGACTTTCGGTTAGTGCTA | 9.1 |
| TTAGGTATCGACACTGGGTTTGTGCTA | 2.25 |
| TTAGGACTGATTTTCCTTTAGTGCTAG | 0.493 |
| TTAGAATTGAGTCTCGATTAGTGCTAG | 0.938 |
| TCCTCTTTCTCTGCTACCCTTGTGCTA | 1.54 |
| GAAAGGTACCATGGTGGCTCGTGCTAG | 0.916 |
| TTAGAGTTCGGGTTTCGATTAGTGCTA | 6.34 |
| AGTTCTCTAGAAATTCCCACGGTGCTA | 0.0863 |
| TTAGCTATCAGTTTCGATTAGTGCTAG | 9.62 |
| GACGATTTCCGGTATCGAGACGTGCTA | 2.55 |
| ATATTTCCCAGAACTGGAGTGGTGCTA | -0.0144 |
| GACGTTTTCGGGTATCGAGACGTGCTA | 6.71 |
| TTCGGTTTCGGGTATCGGTTAGTGCTA | 9.9 |
| TTAGGACTGCTTCTCCTTAAGTGCTAG | -0.322 |
| GACGGTTTCGGTCTGGGGACGTGCTAG | 9.99 |
| TTAGGTTTCGGGTTTCGCTTAGTGCTA | 8.8 |
| TTAGGTCTCGACTTTCGGTTAGTGCTA | 9.79 |
| GATGATCTCAGTATCGAGACGTGCTAG | 1.85 |
| GACGGTTCCGGTTTCGGCACGTGCTAG | 5.05 |
| TTAAAACTGAGTCTCGATTAGTGCTAG | 1 |
| TTCCTTGCTATGTTGCTCAGGTGCTAG | 0.375 |
| GACGAACTGAGACTGGAGACGTGCTAG | -0.21 |

Series 4
Target: Histone acetyltransferase KAT6A, both winged helices, GST fusion (KAT6A, Homo sapiens, UniProt Q92794, residues 1-181)
Method: protein binding microarray
Form: double-stranded DNA, one strand shown
Sample: in vitro
Concentration: not given
Notes: 8-mer, flanks averaged, mean of 2 arrays, mostly near background
Baseline: not given
Reading: higher = stronger binding
Construct (chain): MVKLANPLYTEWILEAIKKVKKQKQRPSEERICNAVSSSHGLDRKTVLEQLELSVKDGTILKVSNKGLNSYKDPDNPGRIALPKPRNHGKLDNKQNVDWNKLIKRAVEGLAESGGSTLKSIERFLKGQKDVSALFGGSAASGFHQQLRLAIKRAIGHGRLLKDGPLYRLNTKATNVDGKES
| Strand | E-score |
| --- | --- |
| AAACTGAG | -0.0755 |
| ATAGGAAC | -0.131 |
| AAGAGAGA | -0.286 |
| AGGGTAGA | -0.0762 |
| ATGTTGTC | 0.0342 |
| AAGCGCAC | 0.267 |
| CGGTTGAG | 0.146 |
| ATTAGTGC | -0.0652 |
| TCCGCGAA | 0.246 |
| GATACATA | -0.0209 |
| ACATTAGG | -0.175 |
| ATCCACGC | 0.0401 |
| CTGTAGAA | -0.265 |
| AAATGATC | -0.119 |
| CTTGTAAC | 0.0267 |
| CTCCATTA | -0.184 |
| CTCACCTA | -0.0162 |
| GGAGCGGA | 0.212 |
